Measurements from different studies.
Each numbered part is a random draw from the data of one study; scales do not carry over between parts.
UniProt P10721, sequence (whole entry, unmodified, looked up): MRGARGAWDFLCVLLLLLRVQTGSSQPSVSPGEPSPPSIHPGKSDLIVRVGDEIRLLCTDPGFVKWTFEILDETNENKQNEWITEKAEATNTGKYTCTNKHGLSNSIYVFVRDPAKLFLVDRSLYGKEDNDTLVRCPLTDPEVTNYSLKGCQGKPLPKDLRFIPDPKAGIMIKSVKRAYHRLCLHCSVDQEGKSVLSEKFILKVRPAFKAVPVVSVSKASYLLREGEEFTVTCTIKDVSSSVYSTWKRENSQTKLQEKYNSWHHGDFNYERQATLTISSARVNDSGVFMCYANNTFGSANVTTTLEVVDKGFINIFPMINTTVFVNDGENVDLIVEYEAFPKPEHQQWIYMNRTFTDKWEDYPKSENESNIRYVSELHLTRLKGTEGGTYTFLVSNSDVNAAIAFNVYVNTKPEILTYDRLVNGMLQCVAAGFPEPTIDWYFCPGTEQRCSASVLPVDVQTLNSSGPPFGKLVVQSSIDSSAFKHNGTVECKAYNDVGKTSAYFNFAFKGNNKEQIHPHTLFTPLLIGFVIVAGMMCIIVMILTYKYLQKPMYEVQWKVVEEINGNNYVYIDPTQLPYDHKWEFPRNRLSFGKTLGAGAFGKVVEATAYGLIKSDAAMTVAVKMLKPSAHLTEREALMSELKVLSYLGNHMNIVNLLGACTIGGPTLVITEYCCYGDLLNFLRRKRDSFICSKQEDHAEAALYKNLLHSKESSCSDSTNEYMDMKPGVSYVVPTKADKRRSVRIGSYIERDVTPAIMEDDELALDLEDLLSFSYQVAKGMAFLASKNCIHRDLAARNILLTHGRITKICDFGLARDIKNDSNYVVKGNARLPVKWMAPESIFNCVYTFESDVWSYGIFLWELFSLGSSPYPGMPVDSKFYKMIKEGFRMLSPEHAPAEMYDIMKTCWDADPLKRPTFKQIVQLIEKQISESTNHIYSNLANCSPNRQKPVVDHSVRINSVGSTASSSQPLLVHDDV
UniProt Q9H2K8, sequence (whole entry, looked up): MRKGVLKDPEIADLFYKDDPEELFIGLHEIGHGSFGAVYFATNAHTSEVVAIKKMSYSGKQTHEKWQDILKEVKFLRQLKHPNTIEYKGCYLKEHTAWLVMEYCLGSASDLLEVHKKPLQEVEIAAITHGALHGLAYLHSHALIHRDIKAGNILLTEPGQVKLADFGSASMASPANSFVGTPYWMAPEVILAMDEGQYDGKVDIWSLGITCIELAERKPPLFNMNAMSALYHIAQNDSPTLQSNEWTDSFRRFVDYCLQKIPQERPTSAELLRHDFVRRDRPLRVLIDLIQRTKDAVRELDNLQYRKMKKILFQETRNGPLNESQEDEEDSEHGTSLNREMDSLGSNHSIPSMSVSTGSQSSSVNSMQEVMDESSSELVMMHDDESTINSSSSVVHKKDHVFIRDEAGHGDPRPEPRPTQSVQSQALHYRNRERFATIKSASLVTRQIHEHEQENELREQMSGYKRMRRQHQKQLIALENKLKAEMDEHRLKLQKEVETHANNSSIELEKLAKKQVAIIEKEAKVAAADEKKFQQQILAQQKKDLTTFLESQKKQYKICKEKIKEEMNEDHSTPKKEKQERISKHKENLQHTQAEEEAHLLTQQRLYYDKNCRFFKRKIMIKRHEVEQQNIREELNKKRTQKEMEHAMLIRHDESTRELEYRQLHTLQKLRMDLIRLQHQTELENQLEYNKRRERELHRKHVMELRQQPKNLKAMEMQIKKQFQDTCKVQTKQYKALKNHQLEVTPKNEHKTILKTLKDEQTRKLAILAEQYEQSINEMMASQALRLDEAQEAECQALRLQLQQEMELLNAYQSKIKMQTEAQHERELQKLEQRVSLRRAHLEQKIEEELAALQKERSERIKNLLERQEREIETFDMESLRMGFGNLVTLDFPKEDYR
UniProt Q86UX6, sequence (whole entry, looked up): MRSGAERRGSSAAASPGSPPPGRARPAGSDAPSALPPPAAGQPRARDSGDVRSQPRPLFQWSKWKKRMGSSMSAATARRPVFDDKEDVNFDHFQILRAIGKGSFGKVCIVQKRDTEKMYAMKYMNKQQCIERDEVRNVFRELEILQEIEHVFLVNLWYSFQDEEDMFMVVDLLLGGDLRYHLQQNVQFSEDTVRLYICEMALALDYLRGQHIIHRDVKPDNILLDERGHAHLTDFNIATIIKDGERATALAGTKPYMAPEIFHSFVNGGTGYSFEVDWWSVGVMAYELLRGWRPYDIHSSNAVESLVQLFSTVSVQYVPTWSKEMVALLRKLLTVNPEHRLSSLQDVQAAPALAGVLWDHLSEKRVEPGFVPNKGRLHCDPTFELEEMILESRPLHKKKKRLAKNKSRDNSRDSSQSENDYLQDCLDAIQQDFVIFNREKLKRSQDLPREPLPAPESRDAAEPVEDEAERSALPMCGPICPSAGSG
UniProt Q8N752, sequence (whole entry, looked up): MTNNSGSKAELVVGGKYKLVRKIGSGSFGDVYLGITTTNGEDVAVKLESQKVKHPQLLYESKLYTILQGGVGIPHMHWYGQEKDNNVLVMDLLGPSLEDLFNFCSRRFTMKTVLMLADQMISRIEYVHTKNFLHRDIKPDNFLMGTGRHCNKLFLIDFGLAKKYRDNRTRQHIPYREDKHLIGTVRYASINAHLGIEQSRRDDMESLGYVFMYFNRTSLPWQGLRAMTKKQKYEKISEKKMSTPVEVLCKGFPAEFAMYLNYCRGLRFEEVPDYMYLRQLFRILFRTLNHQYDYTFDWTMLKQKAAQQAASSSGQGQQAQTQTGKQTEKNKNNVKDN

Set 1
SMILES: O=C(N1CCS(=O)(=O)CC1)N1C[C@H](c2ccc(OC(F)(F)F)cc2)C[C@H](c2nc(C3CC3)no2)C1
Read-out: cell-free assay
Method: competition with immobilised ligand
Tested at: 1 µM
target | remaining binding [%]
Serine/threonine-protein kinase 32C (STK32C, Homo sapiens, UniProt Q86UX6) | 93
Mast/stem cell growth factor receptor Kit (KIT, Homo sapiens, UniProt P10721, V559D) | 100
Casein kinase I isoform alpha-like (CSNK1A1L, Homo sapiens, UniProt Q8N752) | 100
Serine/threonine-protein kinase TAO3 (TAOK3, Homo sapiens, UniProt Q9H2K8) | 100
MAP/microtubule affinity-regulating kinase 4 (MARK4, Homo sapiens, UniProt Q96L34) | 100

Set 2
Target: Mitogen-activated protein kinase kinase kinase 5 (MAP3K5, Homo sapiens, UniProt Q99683)
UniProt Q99683, sequence (whole entry, looked up): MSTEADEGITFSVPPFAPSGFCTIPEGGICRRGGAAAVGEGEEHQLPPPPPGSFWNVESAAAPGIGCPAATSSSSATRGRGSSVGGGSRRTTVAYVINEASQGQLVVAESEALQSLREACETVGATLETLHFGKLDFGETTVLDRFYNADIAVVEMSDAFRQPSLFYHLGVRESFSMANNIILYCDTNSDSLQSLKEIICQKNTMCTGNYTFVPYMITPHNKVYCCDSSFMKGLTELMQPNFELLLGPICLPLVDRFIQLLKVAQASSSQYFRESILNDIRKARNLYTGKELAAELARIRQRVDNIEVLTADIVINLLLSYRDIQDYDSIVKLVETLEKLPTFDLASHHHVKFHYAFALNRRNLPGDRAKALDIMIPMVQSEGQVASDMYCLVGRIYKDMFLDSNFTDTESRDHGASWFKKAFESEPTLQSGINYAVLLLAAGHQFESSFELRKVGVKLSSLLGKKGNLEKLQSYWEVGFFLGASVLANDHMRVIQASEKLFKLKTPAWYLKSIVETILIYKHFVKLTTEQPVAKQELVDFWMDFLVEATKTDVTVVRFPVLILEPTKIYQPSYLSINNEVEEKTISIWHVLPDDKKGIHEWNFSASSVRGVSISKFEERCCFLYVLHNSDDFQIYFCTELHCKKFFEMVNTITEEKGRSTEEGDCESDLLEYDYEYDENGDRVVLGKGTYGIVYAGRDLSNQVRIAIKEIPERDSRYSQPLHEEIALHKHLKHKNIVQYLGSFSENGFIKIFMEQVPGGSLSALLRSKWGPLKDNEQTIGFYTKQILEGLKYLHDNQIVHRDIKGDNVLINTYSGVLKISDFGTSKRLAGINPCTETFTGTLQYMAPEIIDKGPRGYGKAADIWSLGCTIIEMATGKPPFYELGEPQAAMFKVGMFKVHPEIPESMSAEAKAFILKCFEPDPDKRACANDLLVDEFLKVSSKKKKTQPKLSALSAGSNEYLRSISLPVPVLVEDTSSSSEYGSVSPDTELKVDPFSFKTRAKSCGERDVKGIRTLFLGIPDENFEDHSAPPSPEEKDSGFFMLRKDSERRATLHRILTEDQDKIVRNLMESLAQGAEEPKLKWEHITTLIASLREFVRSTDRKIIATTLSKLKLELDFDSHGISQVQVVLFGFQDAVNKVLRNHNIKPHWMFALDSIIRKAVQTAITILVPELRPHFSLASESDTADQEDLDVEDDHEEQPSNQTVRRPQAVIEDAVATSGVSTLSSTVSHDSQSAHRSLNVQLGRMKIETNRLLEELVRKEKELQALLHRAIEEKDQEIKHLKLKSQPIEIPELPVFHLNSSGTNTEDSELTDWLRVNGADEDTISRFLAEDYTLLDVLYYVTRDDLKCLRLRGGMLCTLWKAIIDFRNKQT
Read-out: enzyme activity
Mode: inhibitor
Tested at: 0.5 µM
Baseline: control
Structure (SMILES) | remaining activity
O=C(Nc1cccc(Nc2cc(Nc3cccc(C(F)(F)F)c3)ncn2)c1)C1CC1 | 104%
Oc1ccc(-c2nc(-c3ccncc3)c(-c3ccc(F)cc3)[nH]2)cc1 | 105%
CNC(=O)c1cc(Oc2ccc(NC(=O)Nc3ccc(Cl)c(C(F)(F)F)c3)cc2)ccn1 | 103%
COc1cc2nccc(Oc3ccc(NC(=S)NC(=O)c4ccccc4C)cc3)c2cc1OC | 106%
Cc1ccc(NC(=O)c2ccc(CN3CCN(C)CC3)cc2)cc1Nc1nc(-c2cccnc2)cs1 | 95%
Nc1ccc2ncnc(NCCc3ccc(Oc4ccccc4)cc3)c2c1 | 105%
CN(C)c1ccc(C=C2C(=O)Nc3ccccc32)cc1 | 99.4%
CC(C)[C@H](CO)Nc1nc(Nc2cc(N)cc(Cl)c2)c2ncn(C(C)C)c2n1 | 95.6%
OCC(O)CCON=C1C(c2c(O)[nH]c3ccccc23)=Nc2ccccc21 (centres unmarked) | 91.2%
COc1ccc(CNC(=O)Nc2ncc([N+](=O)[O-])s2)cc1 | 87.8%
Nc1[nH]nc2nc3ccccc3nc12 | 103%
COc1cc2ncnc(Nc3ccc(F)c(Cl)c3)c2cc1OCCCN1CCOCC1 | 103%
Cc1ccc(Nc2nccc(N(C)c3ccc4c(C)n(C)nc4c3)n2)cc1S(N)(=O)=O | 102%
C#Cc1cccc(Nc2ncnc3cc(OCCOC)c(OCCOC)cc23)c1 | 102%
O=C(CCCc1ccc(-c2ccccc2F)cc1)Nc1ccc(O)cc1 | 94.3%

Set 3
SMILES: COc1ccc(-c2c(Nc3ccccn3)[nH]c3c(C4=CCCCC4)c(-c4ccccc4)nn3c2=O)cc1
Matrix: plasma
Route: oral
test | test system | setting | plasma concentration, geometric mean [ng/mL]
 | human patients | 150 mg once daily, 2 h, cycle 1 | 4800
 | cancer patients | 150 mg, 8 h post-dose, single dose | 1120
 | human patients | 150 mg once daily, 24 h, cycle 1 | 3210
 | cancer patients | 150 mg, 72 h post-dose, single dose | 202
 | cancer patients | 100 mg, 2 h post-dose, single dose | 764
 | human patients | 400 mg once daily, 8 h, cycle 1 | 2700
LC-MS/MS | human | 200 mg twice daily, 4 h | 11100

Set 4
Target: Calcium/calmodulin-dependent protein kinase type II subunit alpha (CAMK2A, Homo sapiens, UniProt Q9UQM7)
UniProt Q9UQM7, sequence (whole entry, looked up): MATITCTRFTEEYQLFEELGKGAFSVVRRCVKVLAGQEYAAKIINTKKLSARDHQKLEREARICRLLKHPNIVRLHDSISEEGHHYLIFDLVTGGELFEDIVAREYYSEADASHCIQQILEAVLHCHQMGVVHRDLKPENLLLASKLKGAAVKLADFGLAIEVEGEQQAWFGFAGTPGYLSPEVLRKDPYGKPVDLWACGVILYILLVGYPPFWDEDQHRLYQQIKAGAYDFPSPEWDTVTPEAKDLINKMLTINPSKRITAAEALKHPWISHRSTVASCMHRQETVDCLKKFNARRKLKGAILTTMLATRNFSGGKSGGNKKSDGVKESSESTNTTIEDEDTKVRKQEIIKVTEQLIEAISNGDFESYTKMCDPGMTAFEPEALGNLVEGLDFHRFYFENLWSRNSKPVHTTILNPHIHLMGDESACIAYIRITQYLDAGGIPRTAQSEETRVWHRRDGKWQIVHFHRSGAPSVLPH
Read-out: enzyme activity
Mode: inhibitor
Tested at: 10 µM
SMILES | inhibition [%]
CCc1ccc(C(=O)C(C)CN2CCCCC2)cc1 (centres unmarked) | -2
CCOC(=O)CC(C)O (centres unmarked) | -9
CN(C)CCOC(C)(c1ccccc1)c1ccc(Cl)cc1 (centres unmarked) | -6
CN(CCN1CCC(OC(=O)Nc2ccccc2-c2ccccc2)CC1)C(=O)c1ccc(CN2CCC(C(N)=O)CC2)cc1 | -9
C[C@]12CCC(=O)C=C1CC[C@@H]1[C@@H]2CC[C@@]2(C)[C@H]1CC[C@]2(O)C(=O)CO | 11
COC(=O)/C=C/c1ccc(O)c(OC)c1 | -15
CCCCC[C@H](O)/C=C/[C@H]1C(=O)C[C@H](O)[C@@H]1C/C=C\CCCC(=O)O | -4
OC[C@@H](O)[C@@H](O)[C@@H](O)[C@@H](O)CO | -23

For quick reference, copied from above (set 1):
target | remaining binding [%]
Serine/threonine-protein kinase 32C (STK32C, Homo sapiens, UniProt Q86UX6) | 93
Mast/stem cell growth factor receptor Kit (KIT, Homo sapiens, UniProt P10721, V559D) | 100
Casein kinase I isoform alpha-like (CSNK1A1L, Homo sapiens, UniProt Q8N752) | 100
Serine/threonine-protein kinase TAO3 (TAOK3, Homo sapiens, UniProt Q9H2K8) | 100
MAP/microtubule affinity-regulating kinase 4 (MARK4, Homo sapiens, UniProt Q96L34) | 100
